Experimental data gathered from unrelated publications.
Every numbered part comes from another study and shows a few of its results, in no order. Values joined by “and” are separate records of one study, mostly repeats; a detail may differ.
UniProt P10721, sequence (whole entry, unmodified, looked up): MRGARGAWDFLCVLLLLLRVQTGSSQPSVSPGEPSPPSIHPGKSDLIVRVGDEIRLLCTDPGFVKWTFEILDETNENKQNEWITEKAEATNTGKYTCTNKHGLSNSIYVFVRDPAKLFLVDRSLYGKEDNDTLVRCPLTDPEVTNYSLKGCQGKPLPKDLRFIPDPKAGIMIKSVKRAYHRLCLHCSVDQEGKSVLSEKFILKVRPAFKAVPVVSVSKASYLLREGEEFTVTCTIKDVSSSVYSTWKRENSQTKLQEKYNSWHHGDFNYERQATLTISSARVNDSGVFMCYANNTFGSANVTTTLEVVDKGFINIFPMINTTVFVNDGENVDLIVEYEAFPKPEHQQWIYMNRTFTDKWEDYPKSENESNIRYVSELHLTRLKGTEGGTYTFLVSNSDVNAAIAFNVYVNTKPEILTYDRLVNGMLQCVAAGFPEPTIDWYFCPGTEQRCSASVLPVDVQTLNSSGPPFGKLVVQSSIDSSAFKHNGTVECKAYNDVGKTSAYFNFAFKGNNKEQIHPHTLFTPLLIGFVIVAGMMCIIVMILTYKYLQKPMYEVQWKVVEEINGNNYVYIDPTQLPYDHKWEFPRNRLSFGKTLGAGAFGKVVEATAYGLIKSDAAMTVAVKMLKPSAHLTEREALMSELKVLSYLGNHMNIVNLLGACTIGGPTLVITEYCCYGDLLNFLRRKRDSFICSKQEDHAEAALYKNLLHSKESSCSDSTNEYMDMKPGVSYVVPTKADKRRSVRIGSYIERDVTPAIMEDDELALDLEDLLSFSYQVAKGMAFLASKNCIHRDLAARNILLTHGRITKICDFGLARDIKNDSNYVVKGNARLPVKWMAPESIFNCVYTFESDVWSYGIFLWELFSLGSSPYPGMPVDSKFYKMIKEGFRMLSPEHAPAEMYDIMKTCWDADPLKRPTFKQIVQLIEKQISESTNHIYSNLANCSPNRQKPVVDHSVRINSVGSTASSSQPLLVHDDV
UniProt P37023, sequence (whole entry, looked up): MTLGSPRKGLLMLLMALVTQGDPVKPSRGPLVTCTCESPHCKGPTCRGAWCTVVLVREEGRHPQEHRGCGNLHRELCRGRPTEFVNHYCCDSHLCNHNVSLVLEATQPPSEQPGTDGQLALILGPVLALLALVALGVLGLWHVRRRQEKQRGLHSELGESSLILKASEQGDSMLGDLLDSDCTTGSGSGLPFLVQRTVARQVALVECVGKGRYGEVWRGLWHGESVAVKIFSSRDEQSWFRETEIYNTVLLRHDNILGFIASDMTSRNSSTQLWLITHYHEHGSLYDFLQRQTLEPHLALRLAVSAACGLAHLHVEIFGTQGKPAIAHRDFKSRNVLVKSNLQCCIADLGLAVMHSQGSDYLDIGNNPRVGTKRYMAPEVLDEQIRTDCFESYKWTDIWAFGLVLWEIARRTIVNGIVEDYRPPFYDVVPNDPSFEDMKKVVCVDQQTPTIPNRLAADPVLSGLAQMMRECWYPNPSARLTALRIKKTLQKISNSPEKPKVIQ
UniProt Q8IWQ3, sequence (whole entry, looked up): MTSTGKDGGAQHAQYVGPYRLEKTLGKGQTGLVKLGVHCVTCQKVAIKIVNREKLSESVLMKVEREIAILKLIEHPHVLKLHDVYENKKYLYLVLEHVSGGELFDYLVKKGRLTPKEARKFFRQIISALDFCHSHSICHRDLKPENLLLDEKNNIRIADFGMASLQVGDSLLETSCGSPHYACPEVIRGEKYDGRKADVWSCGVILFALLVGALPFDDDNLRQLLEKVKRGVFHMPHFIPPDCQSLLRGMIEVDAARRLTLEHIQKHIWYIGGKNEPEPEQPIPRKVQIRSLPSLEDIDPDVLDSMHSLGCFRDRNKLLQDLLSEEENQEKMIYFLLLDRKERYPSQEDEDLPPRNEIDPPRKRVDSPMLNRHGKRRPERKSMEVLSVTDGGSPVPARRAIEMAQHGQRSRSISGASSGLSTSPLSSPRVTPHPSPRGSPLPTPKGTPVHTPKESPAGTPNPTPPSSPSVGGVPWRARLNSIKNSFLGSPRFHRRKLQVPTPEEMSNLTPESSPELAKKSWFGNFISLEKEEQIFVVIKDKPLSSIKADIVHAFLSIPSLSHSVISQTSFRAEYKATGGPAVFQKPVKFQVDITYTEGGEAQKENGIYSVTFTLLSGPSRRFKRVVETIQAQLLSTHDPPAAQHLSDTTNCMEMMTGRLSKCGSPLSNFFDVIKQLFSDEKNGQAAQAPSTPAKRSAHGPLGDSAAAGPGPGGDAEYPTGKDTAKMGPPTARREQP
UniProt P11309, sequence (whole entry, looked up): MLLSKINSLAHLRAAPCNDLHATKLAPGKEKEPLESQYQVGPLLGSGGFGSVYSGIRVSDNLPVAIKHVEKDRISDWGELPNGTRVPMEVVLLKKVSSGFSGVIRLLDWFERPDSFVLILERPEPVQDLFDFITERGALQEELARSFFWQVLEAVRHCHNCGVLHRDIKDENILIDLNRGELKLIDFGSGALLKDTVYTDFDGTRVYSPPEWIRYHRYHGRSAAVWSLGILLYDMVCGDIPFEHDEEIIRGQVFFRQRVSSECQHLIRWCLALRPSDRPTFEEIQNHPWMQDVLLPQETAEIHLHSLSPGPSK

Series 1
Compound: C=CC(=O)N1CCC([C@@H]2CCNc3c(C(N)=O)c(-c4ccc(Oc5ccccc5)cc4)nn32)CC1
Tested at: 1 µM
target | assay | inhibition
Phosphatidylinositol 3-kinase C2 domain-containing subunit gamma (PIK3C2G, Homo sapiens, UniProt O75747) | inhibitor | 19%
Serine/threonine-protein kinase 26 (STK26, Homo sapiens, UniProt Q9P289) | enzyme activity, inhibitor | 1%
Rho-associated protein kinase 1 (ROCK1, Homo sapiens, UniProt Q13464) | enzyme activity, inhibitor | 37%
Rho-associated protein kinase 2 (ROCK2, Homo sapiens, UniProt O75116) | enzyme activity, inhibitor | 11%
Myosin-IIIb (MYO3B, Homo sapiens, UniProt Q8WXR4) | enzyme activity, inhibitor | 22%
BDNF/NT-3 growth factors receptor (NTRK2, Homo sapiens, UniProt Q16620) | cell-free assay | 0%

Series 2
Target: DNA polymerase theta, ATPase domain (POLQ, Homo sapiens, UniProt O75417)
UniProt O75417, sequence (whole entry, unmodified, looked up): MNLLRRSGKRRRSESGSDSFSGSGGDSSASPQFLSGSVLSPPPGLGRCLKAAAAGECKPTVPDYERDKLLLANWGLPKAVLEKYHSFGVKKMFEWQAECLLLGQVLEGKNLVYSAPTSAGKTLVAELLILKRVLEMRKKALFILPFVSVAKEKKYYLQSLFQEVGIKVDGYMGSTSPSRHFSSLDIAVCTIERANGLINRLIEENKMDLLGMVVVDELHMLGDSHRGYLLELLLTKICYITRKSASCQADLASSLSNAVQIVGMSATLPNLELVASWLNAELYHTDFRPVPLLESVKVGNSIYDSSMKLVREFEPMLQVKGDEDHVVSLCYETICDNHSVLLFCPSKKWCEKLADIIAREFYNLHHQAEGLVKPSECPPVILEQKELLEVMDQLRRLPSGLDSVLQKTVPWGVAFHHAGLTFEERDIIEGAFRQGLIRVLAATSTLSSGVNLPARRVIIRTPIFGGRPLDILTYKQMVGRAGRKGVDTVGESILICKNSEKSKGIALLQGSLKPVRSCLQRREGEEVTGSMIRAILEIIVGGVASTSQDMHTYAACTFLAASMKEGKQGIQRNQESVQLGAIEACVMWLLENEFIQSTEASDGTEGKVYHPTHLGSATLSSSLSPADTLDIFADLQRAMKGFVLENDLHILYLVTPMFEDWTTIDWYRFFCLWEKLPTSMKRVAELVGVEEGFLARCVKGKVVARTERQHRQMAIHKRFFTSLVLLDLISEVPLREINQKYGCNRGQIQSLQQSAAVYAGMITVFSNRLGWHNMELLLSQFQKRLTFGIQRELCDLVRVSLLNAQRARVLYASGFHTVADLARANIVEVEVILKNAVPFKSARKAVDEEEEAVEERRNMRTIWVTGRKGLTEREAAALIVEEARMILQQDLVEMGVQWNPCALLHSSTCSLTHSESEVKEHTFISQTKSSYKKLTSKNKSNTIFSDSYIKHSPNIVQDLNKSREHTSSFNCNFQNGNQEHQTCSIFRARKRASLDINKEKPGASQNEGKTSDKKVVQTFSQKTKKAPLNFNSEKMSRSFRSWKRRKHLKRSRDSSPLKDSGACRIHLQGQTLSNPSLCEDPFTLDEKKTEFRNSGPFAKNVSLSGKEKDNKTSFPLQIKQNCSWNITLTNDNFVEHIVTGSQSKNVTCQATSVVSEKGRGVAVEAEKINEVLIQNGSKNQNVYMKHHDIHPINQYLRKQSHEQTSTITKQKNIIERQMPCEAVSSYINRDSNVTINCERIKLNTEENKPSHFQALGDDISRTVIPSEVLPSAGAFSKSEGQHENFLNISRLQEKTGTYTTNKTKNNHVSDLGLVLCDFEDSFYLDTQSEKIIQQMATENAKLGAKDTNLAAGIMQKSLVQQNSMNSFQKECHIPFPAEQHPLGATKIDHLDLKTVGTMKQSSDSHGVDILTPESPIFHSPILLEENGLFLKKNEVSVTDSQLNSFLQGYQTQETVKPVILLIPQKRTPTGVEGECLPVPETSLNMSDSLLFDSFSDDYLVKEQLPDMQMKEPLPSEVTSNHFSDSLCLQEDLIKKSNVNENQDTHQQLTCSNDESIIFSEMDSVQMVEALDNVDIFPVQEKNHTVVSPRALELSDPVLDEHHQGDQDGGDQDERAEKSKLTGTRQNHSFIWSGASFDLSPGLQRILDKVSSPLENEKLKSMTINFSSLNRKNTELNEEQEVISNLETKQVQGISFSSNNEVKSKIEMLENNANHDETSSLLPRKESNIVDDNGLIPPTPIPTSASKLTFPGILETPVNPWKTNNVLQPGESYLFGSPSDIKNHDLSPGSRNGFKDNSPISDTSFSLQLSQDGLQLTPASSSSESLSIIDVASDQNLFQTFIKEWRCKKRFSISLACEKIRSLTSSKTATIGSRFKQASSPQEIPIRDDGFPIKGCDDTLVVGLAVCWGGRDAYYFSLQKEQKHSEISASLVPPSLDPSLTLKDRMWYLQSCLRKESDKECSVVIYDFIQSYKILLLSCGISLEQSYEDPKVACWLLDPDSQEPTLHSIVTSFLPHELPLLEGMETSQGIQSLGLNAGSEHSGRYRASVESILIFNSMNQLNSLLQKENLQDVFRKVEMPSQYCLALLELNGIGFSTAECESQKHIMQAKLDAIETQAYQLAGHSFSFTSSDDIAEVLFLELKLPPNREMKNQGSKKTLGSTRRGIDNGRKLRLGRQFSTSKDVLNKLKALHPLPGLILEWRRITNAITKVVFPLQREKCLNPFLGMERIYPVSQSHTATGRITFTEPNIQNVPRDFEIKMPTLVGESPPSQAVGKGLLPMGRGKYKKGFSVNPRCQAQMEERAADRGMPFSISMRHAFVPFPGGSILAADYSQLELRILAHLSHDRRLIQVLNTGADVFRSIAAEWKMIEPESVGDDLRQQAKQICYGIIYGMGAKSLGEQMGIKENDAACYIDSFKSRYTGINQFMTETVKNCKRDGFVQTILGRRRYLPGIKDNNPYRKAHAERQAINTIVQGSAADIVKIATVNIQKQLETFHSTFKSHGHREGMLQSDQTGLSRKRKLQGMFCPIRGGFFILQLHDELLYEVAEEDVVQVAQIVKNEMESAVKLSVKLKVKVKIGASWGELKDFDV
Observed: enzyme activity
Action: inhibitor
Tested at: 77 µM
Relative to: untreated
Structure (SMILES) | remaining activity
CCCC(=O)O[C@]1(C(=O)COC(C)=O)CC[C@H]2[C@@H]3C[C@H](F)C4=CC(=O)C=C[C@]4(C)[C@@]3(F)[C@@H](O)C[C@@]21C | 102%
OCCN1C[C@H](O)[C@@H](O)[C@H](O)[C@H]1CO | 100%
CN[C@H](CC(=O)O)C(=O)O | 101% and 78.2%

Series 3
SMILES: CNc1cc2c(Nc3cccc(Br)c3)ncnc2cn1
Observed: enzyme activity
Action: inhibitor
Tested at: 0.5 µM
Relative to: control
target | remaining activity [%]
Serine/threonine-protein kinase pim-1 (PIM1, Homo sapiens, UniProt P11309) | 66.2
Ephrin type-B receptor 3 (EPHB3, Homo sapiens, UniProt P54753) | 92.7
Maternal embryonic leucine zipper kinase (MELK, Homo sapiens, UniProt Q14680) | 91.6
Serine/threonine-protein kinase BRSK2 (BRSK2, Homo sapiens, UniProt Q8IWQ3) | 90.9

Series 4
Structure (SMILES): O=C(O)c1cc(-c2ccc(C3CCNCC3)cc2)c2ccc(-c3ccc(C(F)(F)F)cc3)cc2c1
Observed: cell-free assay
Technique: competition with immobilised ligand
Tested at: 1 µM
target | remaining binding
Mast/stem cell growth factor receptor Kit (KIT, Homo sapiens, UniProt P10721, V559D) | 100%
Serine/threonine-protein kinase ULK1 (ULK1, Homo sapiens, UniProt O75385) | 100%
Mitogen-activated protein kinase kinase kinase 20 (MAP3K20, Homo sapiens, UniProt Q9NYL2) | 100%
Serine/threonine-protein kinase WNK1 (WNK1, Homo sapiens, UniProt Q9H4A3) | 100%
Tyrosine-protein kinase ABL1, phosphorylated (ABL1, Homo sapiens, UniProt P00519, H396P) | 86%
Mast/stem cell growth factor receptor Kit, autoinhibited (KIT, Homo sapiens, UniProt P10721) | 99%
NUAK family SNF1-like kinase 1 (NUAK1, Homo sapiens, UniProt O60285) | 100%
Protein kinase C iota type (PRKCI, Homo sapiens, UniProt P41743) | 82%
Serine/threonine-protein kinase MARK1 (MARK1, Homo sapiens, UniProt Q9P0L2) | 100%
Activin receptor type-1-like (ACVRL1, Homo sapiens, UniProt P37023) | 100%
Cyclin-dependent kinase-like 2 (CDKL2, Homo sapiens, UniProt Q92772) | 100%
ALK tyrosine kinase receptor (ALK, Homo sapiens, UniProt Q9UM73, L1196M) | 100%
Atypical kinase COQ8A, mitochondrial (COQ8A, Homo sapiens, UniProt Q8NI60) | 100%

A few entries again (series 4):
target | remaining binding
Mast/stem cell growth factor receptor Kit, autoinhibited (KIT, Homo sapiens, UniProt P10721) | 99%
NUAK family SNF1-like kinase 1 (NUAK1, Homo sapiens, UniProt O60285) | 100%
Protein kinase C iota type (PRKCI, Homo sapiens, UniProt P41743) | 82%
